Measurements from different studies.
Parts stem from different laboratories: compare values within a part only. Substitutions count along the parent as printed.

Study 1 — method: DHFR PCA, deep sequencing; sample: yeast; with: (+)-ABA 710 µM; baseline: wild-type fitted maximum; direction: higher = stronger binding; quantity: relative binding score
Target: ABI1, truncated, D143A, DHFR fusion (Arabidopsis thaliana)
Notes: methotrexate growth selection, single substitutions
Starting sequence: PYL1, truncated, DHFR fusion (Arabidopsis thaliana); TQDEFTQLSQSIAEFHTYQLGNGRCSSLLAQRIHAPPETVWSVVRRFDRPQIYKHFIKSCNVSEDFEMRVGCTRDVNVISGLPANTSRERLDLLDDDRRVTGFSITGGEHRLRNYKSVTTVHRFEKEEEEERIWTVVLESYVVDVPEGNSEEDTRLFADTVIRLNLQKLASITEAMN
E152N: 92.7%
K126Y: 106%
S87F: 4.75%
K116E: 82.7%
V100A: 110%
Y141Q: -15.4%
T1S: 96.7%
V76Q: 34.9%
D97E: 122%
I79P: 71.3%
T154Q: 27.3%
G71L: 58.4%
T73H: 100%
N22H: 103%

Study 2 — method: RNA Bind-n-Seq; form: RNA; sample: in vitro; concentration: 100 nM; baseline: input RNA pool; direction: higher = stronger binding; quantity: bound/input enrichment
Target: RING finger protein unkempt homolog, zinc fingers 1-6, SBP tag (UNK, Homo sapiens, UniProt Q9C0B0, residues 30-357)
UniProt Q9C0B0, sequence (30-357, looked up): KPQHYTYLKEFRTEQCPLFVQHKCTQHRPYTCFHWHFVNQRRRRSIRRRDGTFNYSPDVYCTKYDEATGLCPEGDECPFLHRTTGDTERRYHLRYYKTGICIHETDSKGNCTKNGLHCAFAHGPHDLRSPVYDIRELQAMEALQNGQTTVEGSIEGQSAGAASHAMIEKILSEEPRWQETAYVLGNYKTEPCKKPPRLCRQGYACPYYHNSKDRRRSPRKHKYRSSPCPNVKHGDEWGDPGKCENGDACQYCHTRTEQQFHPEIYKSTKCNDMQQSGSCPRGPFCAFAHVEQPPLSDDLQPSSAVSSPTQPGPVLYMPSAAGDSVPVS
Notes: RNA with constant flanks, vertebrate orthologous sites, ends assumed
Shared flanks, not repeated: GGGAGUUCUACAGUCCGACGAUC … CAACAGAGGAUUGAGCAUCA
UUCAGUCCCCUGGGCCGGGACAGAUUUUUUUUUAACGUCUUGAAAUUUAAACUGUGCUUGUAGGAGACUGUAACCUUUUUGUCUUUUUUUUUAAACCACCUCUGCCUCCAGUGGCUGUGA: 0.679 ratio
GUAUUUUCAAACAAUAGGAAGCUUUGGUUUUGUUUUUUUUUUUCUCUCUUUUUUACAGUUUAGUGUAUCAGGUUUGUAUAUGGAAGACUAAACUCAUGCUUAUUUGCUAAAUGUGGGCUU: 1.27 ratio
GGGGGGCAUUCUGCCCGGGGACGCUGGCUGCUUAGCACUGUUUGAUUUGUGACCUUGAUGUAAUAGGUAGGCUUGUGGGUUUUGUUUUUGUUUUUGUUUUAAUUUAAAGACAUUAAGACU: 0.754 ratio
AUCCCUCAGUGACAGUAUGCCGUCUGUAGCAGAUUCCCACUCUAGUCAUUUUUCUGAGUUUAGUUGUUCUGACCUAGAAAGCAUGAAAACUUCUUGUAGUCAUGGUUCCAGUGACUAUCA: 1.69 ratio
AGAUUUGGACCUUGGAGACGAACCAAGGAGCUAGCAAAGUAAAGCAGACUUGUAAAAUGAUAGCCAGAUGCAGCUGCACAACAACAGUACUAUGACUAGCAGCUGUGUUAAAGUAUUUAU: 0.315 ratio
AGUAGUAGAAUGGACCGUUUCCACAUAAAAGGCAAGGGAAAACUUGGAAGUGAUUGGGACUAUCCCCAGUGAGUACCCACAUUUCAUUUCACUUCUACACAUGGUCACCUUCUAAGGGGG: 0.382 ratio
GUUAGGUCAUGACCCUUACAGGUUAGGCCAUGAUGCCUACAGGUUAGGGCAAGACCCUUAUAGAUUAGGCCAUGAUCCCUACAGACUAACUCCUGAUCCGUAUAGGAUGUCUCCUAGACC: 0.228 ratio
CAAUUCGAUGGUUGAGGGUUCAGAACUCAAAAAGGUUCGCUCCAACUCCAGGAUUUACCACAGGUAUUUUUUACUGGAUGCCGACAUGCAGAGCCUGAGGUGGGAGCCAUCUAAGAAGGA: 0.14 ratio
GCACAUGCCGCUAUCACCAAAAGCAAACUGCCACUUUUCAAAUUUCAUUCAGAGCUGUGUUAGUGUUUCCUAUUCCCUACCCUUCCCACUUUCAAUGAUGAAAUAUCCUAAGUUCUCCUU: 1.48 ratio
AUUCAAACCCGUGGUGCCCUGGCCUCAUGUUGAAGGAGUGGAAGUGGACUUAGAGUCUAUUAGAAGAAAAAACAAGGCCAGACAUGAACAAGAGCGCCACGCUGGAGGAGAUAACCAGAA: 0.416 ratio
UUUAUUGUACUAUCUAUGUAGUCUGAGUUCUUGUUCAGCCAUGGAGUUGCCAUGAUGCACCAAUAAAAUUAUACAGUGUAGUUUGAAAACACCUGCUACCUGGAGCUAUCAGUUUUGCUU: 0.451 ratio

Study 3 — method: protein binding microarray; form: double-stranded DNA, one strand shown; sample: in vitro; concentration: not given; baseline: not given; direction: higher = stronger binding; quantity: E-score
Target: Histone acetyltransferase KAT6A, winged helix 1, GST fusion (KAT6A, Homo sapiens, UniProt Q92794, residues 1-85)
Notes: 8-mer, flanks averaged, mean of 2 arrays, mostly near background
Construct (chain): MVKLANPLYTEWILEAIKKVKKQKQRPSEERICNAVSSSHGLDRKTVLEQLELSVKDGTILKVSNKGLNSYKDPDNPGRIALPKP
CATCAATG: -0.0575
GCTTTGAA: -0.142
GTATTGCA: -0.0455
ACCCGAAT: 0.0702
GCCAGCCC: -0.0828
CTAGCGGA: 0.16
ATTAGACG: 0.0168
AACGTTCT: -0.108
CTCTGATC: -0.12
ATCCGTCG: 0.345
GTCTCGTA: -0.128
ACGGGAGT: 0.19
CAGCGTGG: 0.15
CCCCGTAA: 0.216
CCCACCTA: -0.153
CCCTATAG: -0.0426
AACCTTCT: -0.123
ATTCCAGG: -0.172
ATGGCTCA: -0.295
GTATGCTA: 0.0428
ATTGCTTA: -0.168

Study 4 — method: universal PBM; form: double-stranded DNA, one strand shown; sample: in vitro; concentration: 600 nM; direction: higher = stronger binding; quantity: E-score
Target: Sal-like protein 4, full length isoform A (SALL4, Homo sapiens, UniProt Q9UJQ4, residues 1-1053)
UniProt Q9UJQ4, sequence (whole entry, looked up): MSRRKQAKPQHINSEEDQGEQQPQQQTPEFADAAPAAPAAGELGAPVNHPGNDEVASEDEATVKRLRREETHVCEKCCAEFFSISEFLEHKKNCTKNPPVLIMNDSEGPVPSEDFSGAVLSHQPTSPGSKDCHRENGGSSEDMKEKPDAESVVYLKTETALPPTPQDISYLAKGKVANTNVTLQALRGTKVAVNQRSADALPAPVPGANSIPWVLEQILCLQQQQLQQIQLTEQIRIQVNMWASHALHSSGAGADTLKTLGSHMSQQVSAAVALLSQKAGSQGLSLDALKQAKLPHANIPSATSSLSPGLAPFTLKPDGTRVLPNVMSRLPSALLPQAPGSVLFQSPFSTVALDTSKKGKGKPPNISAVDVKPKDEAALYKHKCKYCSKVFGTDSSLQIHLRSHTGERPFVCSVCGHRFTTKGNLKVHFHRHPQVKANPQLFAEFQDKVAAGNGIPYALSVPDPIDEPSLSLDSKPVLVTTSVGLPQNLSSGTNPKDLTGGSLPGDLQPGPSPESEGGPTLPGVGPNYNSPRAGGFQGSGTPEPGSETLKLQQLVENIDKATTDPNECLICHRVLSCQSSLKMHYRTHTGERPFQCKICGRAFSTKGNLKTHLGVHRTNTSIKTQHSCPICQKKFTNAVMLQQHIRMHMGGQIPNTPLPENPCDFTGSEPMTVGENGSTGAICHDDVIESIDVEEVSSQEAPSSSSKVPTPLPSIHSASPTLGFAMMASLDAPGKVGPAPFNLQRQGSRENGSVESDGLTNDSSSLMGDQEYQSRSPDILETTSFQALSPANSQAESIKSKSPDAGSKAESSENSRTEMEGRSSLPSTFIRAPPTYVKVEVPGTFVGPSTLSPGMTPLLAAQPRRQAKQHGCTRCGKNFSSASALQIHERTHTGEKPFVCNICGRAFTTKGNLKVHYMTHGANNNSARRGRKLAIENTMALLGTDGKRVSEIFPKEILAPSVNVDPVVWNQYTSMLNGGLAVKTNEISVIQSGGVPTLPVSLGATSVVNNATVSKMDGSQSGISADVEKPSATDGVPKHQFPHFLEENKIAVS
Notes: 8-mer, flanks averaged, mean of replicates
TCACTTCA: 0.0297
CGTACAAG: 0.0821
AGAATGAC: 0.0776
CAACATCC: -0.182
ACGTGTGG: -0.0422
GATCGGAC: -0.0935
AGACTAAC: 0.0234
ATACAGCC: -0.032
GTTACAAA: 0.226
CTATATGC: 0.291
AGAGTCCG: -0.164
AACGGCTC: -0.211
ACGAGCAA: -0.0825
AATTCCGC: -0.0546
CTTTGGGC: -0.195
CCTAAGGA: 0.002
CAGAAACC: -0.102
CCGCTCTA: 0.0932
GTCATTAA: 0.235
GAATTGCC: -0.0181
ATAATCGA: 0.279
AACTTATC: 0.161
AGGTCGTA: 0.055
CAATACCA: 0.206
CGCGATAC: -0.147

Study 5 — target: ATF1, bZIP domain (human); method: DHFR protein complementation; sample: yeast; baseline: wild-type JUN-FOS pair; direction: higher = stronger binding; quantity: binding fitness
Notes: single substitutions, most at no-binding floor
Starting sequence: JUN, bZIP domain (human); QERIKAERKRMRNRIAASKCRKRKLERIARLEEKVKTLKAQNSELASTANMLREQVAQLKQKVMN; partner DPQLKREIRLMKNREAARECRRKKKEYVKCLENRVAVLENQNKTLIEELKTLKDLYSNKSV
L45A: -1.54 natural log
Q41M: -1.48 natural log
E44W: -1.51 natural log
Q41R: -1.5 natural log
S47D: -1.52 natural log
L45E: -1.57 natural log
R30E: -1.42 natural log
S47L: -1.4 natural log
E44Y: -1.48 natural log
V35R: -1.56 natural log
Q58R: -1.39 natural log
T37C: -1.41 natural log
I28H: -1.63 natural log

Study 6 — target: CCNB2, cyclin fold, Cln2 fusion (human); method: yeast growth competition, sequencing; sample: yeast; notes: weak parent motif; baseline: not given; direction: higher = stronger binding; quantity: normalised enrichment score
Starting sequence: PKN2 docking peptide (human); VSAVQKLDFSDTM; partner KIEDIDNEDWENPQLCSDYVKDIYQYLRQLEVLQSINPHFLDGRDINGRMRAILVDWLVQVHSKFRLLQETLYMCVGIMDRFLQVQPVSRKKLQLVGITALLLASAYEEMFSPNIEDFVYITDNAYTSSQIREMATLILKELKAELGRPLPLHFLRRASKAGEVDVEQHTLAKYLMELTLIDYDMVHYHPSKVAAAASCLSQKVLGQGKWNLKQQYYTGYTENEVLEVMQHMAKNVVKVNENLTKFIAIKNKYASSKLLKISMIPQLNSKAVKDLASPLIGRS
D11Y: -0.243
D11E: -0.188
F9V: -0.382
D11K: -0.256
V4H: -0.0365
L7V: -0.421
T12D: 0.247
D8F: -0.0974
K6M: -0.252
D11C: 0.0936
T12E: 0.676
V4S: -0.568
T12P: 0.539
L7Y: -0.387
V1Q: 0.362

Further values, each from its own experiment
T1: itself; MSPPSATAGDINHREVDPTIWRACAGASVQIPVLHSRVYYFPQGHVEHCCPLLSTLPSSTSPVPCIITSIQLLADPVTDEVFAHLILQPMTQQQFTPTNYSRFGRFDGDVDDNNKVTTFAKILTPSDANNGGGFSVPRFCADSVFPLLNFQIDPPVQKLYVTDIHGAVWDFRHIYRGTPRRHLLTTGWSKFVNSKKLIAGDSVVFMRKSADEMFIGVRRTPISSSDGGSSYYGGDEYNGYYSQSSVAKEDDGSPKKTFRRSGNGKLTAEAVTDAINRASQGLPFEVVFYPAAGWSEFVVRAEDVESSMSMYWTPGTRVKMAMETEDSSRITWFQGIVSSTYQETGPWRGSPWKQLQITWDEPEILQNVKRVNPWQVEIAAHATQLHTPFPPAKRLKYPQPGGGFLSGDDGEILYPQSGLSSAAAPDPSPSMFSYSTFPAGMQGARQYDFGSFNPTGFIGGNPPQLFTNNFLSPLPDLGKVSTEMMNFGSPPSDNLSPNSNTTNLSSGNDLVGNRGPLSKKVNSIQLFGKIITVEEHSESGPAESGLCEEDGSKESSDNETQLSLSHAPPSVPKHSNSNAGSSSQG
B1: ARF17 (Arabidopsis thaliana, UniProt Q84WU6); chain MSPPSATAGDINHREVDPTIWRACAGASVQIPVLHSRVYYFPQGHVEHCCPLLSTLPSSTSPVPCIITSIQLLADPVTDEVFAHLILQPMTQQQFTPTNYSRFGRFDGDVDDNNKVTTFAKILTPSDANNGGGFSVPRFCADSVFPLLNFQIDPPVQKLYVTDIHGAVWDFRHIYRGTPRRHLLTTGWSKFVNSKKLIAGDSVVFMRKSADEMFIGVRRTPISSSDGGSSYYGGDEYNGYYSQSSVAKEDDGSPKKTFRRSGNGKLTAEAVTDAINRASQGLPFEVVFYPAAGWSEFVVRAEDVESSMSMYWTPGTRVKMAMETEDSSRITWFQGIVSSTYQETGPWRGSPWKQLQITWDEPEILQNVKRVNPWQVEIAAHATQLHTPFPPAKRLKYPQPGGGFLSGDDGEILYPQSGLSSAAAPDPSPSMFSYSTFPAGMQGARQYDFGSFNPTGFIGGNPPQLFTNNFLSPLPDLGKVSTEMMNFGSPPSDNLSPNSNTTNLSSGNDLVGNRGPLSKKVNSIQLFGKIITVEEHSESGPAESGLCEEDGSKESSDNETQLSLSHAPPSVPKHSNSNAGSSSQG
PhoQ, residues 284 288 289 292 302 303 GASLAW — fold induction (PhoP, residues 12 14 15 18 19 NMSFL (Escherichia coli, UniProt P23836); Sort-seq, refers to: YFP reporter; E. coli; PhoQ-PhoP variant library, with: 10 µM Mg2+; baseline: high Mg2+ state, higher = stronger signaling): 12.8
B1 (ARF17) — positive tests (T1, itself; two-hybrid; weak activation fusion; baseline: out of 4 tests, higher = firmer interaction): 0

A few entries again (study 3):
ATTAGACG: 0.0168
AACGTTCT: -0.108
CTCTGATC: -0.12
ATCCGTCG: 0.345
GTCTCGTA: -0.128
ACGGGAGT: 0.19
CAGCGTGG: 0.15
CCCCGTAA: 0.216
